Published values collected from several papers.
Each numbered part is a random draw from the data of one study; scales do not carry over between parts. Positions count from the first letter of the parent shown.

Series 1 — target: UBE2A UBC core domain (UniProt P49459); method: yeast two-hybrid; matrix: yeast; setting: mostly zero background; relative to: not given; direction: higher = stronger interaction
UniProt P49459, sequence (whole entry, looked up): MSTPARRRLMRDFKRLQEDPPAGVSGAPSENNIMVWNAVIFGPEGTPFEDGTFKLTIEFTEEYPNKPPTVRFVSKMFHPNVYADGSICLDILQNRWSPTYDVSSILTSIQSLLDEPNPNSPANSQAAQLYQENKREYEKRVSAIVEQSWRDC
B1: TRIM63 RING domain (UniProt Q969Q1); chain PMENLEKQLICPICLEMFTKPVVILPCQHNLCRKCANDIFQAANPYWTSRGSSVSMSGGRFRCPTCRHEVIMDRHGV
B2: RNF25 RING domain (UniProt Q96BH1); chain LTDNNIPHGQCVICLYGFQEKEAFTKTPCYHYFHCHCLARYIQHMEQELKAQGQEQEQERQHATTKQKAVGVQCPVCREPLVYDLASL
B3: TRIM8 RING domain (UniProt Q9BZR9); chain WKNCFEEELICPICLHVFVEPVQLPCKHNFCRGCIGEAWAKDSGLVRCPECNQAYNQKPGLE
B4: UHRF2 RING domain (UniProt Q96PU4); chain CGGDPEKKCHSCSCRVCGGKHEPNMQLLCDECNVAYHIYCLNPPLDKVPEEEYWYCPSCKTDSSEVVKAGER
B5: RC3H2 RING domain (UniProt Q9HBD1); chain QAAQWTEFLSCPICYNEFDENVHKPISLGCSHTVCKTCLNKLHRKACPFDQTAINTDIDVL
`B1 (TRIM63 RING domain)` — result for “lacZ reporter activity”: 0.
Under “lacZ reporter activity”, `QLRRLQEERTCKVCMDKEVSVVFIPCGHLVVCQECAPSLRKCPICRGIIKGTVRTF (BIRC2 RING domain (UniProt Q13490))` is recorded as 0.
`B2 (RNF25 RING domain)`: “lacZ reporter activity” 0.
`QLRRLQEERTCKVCMDKEVSIVFIPCGHLVVCKDCAPSLRKCPICRSTIKGTVRTF (BIRC3 RING domain (UniProt Q13489))`: “lacZ reporter activity” 0.
For `RLTMMWEEVTCPICLDPFVEPVSIECGHSFCQECISQVGKGGGSVCPVCRQRFLLKNLRP (TRIM21 RING domain (UniProt P19474))`, “lacZ reporter activity” read 0.
`B3 (TRIM8 RING domain)` — result for “lacZ reporter activity”: 0.
For `B4 (UHRF2 RING domain)`, “lacZ reporter activity” read 0.
`DDENSDNSNECVVCLSDLRDTLILPCRHLCLCTSCADTLRYQANNCPICRLPFRALLQIR (MGRN1 RING domain (UniProt O60291))`: “lacZ reporter activity” 0.
For `B5 (RC3H2 RING domain)`, “lacZ reporter activity” read 0.
For `DAIPSLSECQCGICMEILVEPVTLPCNHTLCKPCFQSTVEKASLCCPFCRRRVSSWTRYH (RNF168 RING domain (UniProt Q8IYW5))`, “lacZ reporter activity” read 0.

Series 2 — read-out: peptide-MHC binding; form: peptide; tested at: concentration not given
Target: HLA class I histocompatibility antigen, A alpha chain, allele A*80:01 (Homo sapiens, UniProt P04439)
`SSARYDVAL`: binding “inactive”.
`EVIPYTPAM`: binding “inactive”.
`VSDGGPNLY`: binding “inactive”.
Under binding, `APDGFYPFK` is recorded as “inactive”.
`MLKLRQARL`: binding “inactive”.
For `TPSGKRLQI`, binding read “inactive”.
Under binding, `SELTVSPPD` is recorded as “inactive”.
Under binding, `LPRERFRKT` is recorded as “inactive”.
`FELLHFISS`: binding “inactive”.
`VVPSYIPLV` — result for binding: “inactive”.
For `ESLLHQASW`, binding read “inactive”.
`MSADNAGAL`: binding “inactive”.

Series 3 — target: CCNB1, cyclin fold, Cln2 fusion (human); method: yeast growth competition, sequencing; matrix: yeast; setting: strong parent motif; relative to: not given; direction: higher = stronger binding
Starting sequence: viral docking peptide; KGVKRKLFAEDSS; partner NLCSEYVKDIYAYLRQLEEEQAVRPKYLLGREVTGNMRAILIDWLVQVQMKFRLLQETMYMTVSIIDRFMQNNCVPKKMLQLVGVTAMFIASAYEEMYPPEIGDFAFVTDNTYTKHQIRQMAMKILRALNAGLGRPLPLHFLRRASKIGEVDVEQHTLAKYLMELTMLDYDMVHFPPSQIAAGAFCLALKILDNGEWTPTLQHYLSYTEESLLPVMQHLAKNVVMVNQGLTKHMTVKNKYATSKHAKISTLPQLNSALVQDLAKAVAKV
`KNVKRKLFAEDSS [G2N]` — result for “normalised enrichment score”: 2.28.
Under “normalised enrichment score”, `KGVKRQLFAEDSS [K6Q]` is recorded as 2.84.
`KGVKRELFAEDSS [K6E]`: “normalised enrichment score” 2.28.
For `KGWKRKLFAEDSS [V3W]`, “normalised enrichment score” read 0.53.
`KGVKRKLFADDSS [E10D]` — result for “normalised enrichment score”: 3.24.
For `KGVKRKLFAEDWS [S12W]`, “normalised enrichment score” read 2.51.
For `KLVKRKLFAEDSS [G2L]`, “normalised enrichment score” read 1.23.
`KGDKRKLFAEDSS [V3D]` — result for “normalised enrichment score”: -0.0252.
`KGEKRKLFAEDSS [V3E]` — result for “normalised enrichment score”: 0.216.
For `KGVKRKLFAEDMS [S12M]`, “normalised enrichment score” read 2.2.
Under “normalised enrichment score”, `KGVKRKLFAESSS [D11S]` is recorded as 1.65.
For `KGVKRKLFPEDSS [A9P]`, “normalised enrichment score” read 2.1.
`KGNKRKLFAEDSS [V3N]` — result for “normalised enrichment score”: 0.364.
Under “normalised enrichment score”, `KGVKRKLFAEWSS [D11W]` is recorded as 0.798.
Under “normalised enrichment score”, `KGVKRKLFAGDSS [E10G]` is recorded as 0.823.
For `KGVKRKYFAEDSS [L7Y]`, “normalised enrichment score” read 0.352.
Under “normalised enrichment score”, `KGVKRKLFAYDSS [E10Y]` is recorded as 0.4.
Under “normalised enrichment score”, `KGVKYKLFAEDSS [R5Y]` is recorded as 0.0621.
For `KGVKRKLFAFDSS [E10F]`, “normalised enrichment score” read 0.681.
`KGVKRKLFKEDSS [A9K]`: “normalised enrichment score” 1.09.
Under “normalised enrichment score”, `KYVKRKLFAEDSS [G2Y]` is recorded as 1.01.
`KGVKRGLFAEDSS [K6G]`: “normalised enrichment score” 0.682.
`KGVKRKPFAEDSS [L7P]`: “normalised enrichment score” 0.14.
For `KGVKRKLFATDSS [E10T]`, “normalised enrichment score” read 0.796.
`KGVKRKLFWEDSS [A9W]`: “normalised enrichment score” 1.38.

Series 4 — method: EMSA with sequencing; form: double-stranded DNA, one strand shown; matrix: in vitro; tested at: 10 and 20 nM; relative to: negative control set to 0; direction: higher = stronger binding
Target: Hepatocyte nuclear factor 3-alpha (Foxa1, Mus musculus, UniProt P35582, residues 1-468, full length assumed)
Setting: whole designed probe, mean of two concentrations, ends assumed
Residues (chain): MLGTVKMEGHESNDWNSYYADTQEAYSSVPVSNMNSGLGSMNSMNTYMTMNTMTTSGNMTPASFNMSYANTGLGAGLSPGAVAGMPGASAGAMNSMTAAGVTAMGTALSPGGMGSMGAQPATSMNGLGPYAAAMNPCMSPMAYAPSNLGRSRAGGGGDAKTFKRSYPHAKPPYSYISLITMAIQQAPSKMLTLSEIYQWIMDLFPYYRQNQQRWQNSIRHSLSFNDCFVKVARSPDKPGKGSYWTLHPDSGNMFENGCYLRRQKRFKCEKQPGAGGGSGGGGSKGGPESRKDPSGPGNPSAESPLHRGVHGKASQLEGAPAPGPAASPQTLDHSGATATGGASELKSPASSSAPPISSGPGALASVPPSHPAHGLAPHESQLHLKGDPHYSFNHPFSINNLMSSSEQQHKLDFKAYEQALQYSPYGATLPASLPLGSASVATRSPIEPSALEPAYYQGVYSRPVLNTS
`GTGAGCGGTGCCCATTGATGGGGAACTGCACCACTCAGCCCCTCCTAGTCCGCTGGAGAAAGTGGCTGAGGGGGTGGTGGGGGATAATTGCATTTCCAAAGTCCGGGCAATCAGCCAATGTAAACAGGCACCTGCGTCACTGTGTGGGCTCTCTAGGCAACAGGTAAAATACATCAAATACACACAATTTCCTGACATTCCAATGCATTTCTGCGTGAGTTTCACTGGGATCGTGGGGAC` — result for “normalised bound fraction”: 0.267 ratio.
`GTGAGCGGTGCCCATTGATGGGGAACATCTTCCCCCTCTTCCTTGCCCCACCAGCTCACCTACGGGGGTTATTTGCACAAAGGAAAATAAATAAAGCCGGCATTCGTTAACCCTCTTCACGCGCATACTGCTGTTTGCTCTGGATGAATCATGGTCCTTTGGCGAGGCGTGGCTCCGGGAGAGCAAAGCACCGTGTCAGGGCCATGATCCGGGCTCGCCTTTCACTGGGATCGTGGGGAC`: “normalised bound fraction” 0.378 ratio.
`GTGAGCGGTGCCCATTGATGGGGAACCATCAGCAGGCTTCCTCTGAGAAGTTTCCCATCGACGTATCCTCTTTCAAGGGCCTTCCAAGCATGGAGACATTTCCTCAGAGATAATAAGAGTAATCTGGGAACTAAGGCCTCCCAGACCTTGACAGCCTCTGCCTGAGTGCACAGATGCAGCTGGGCTGTGGCAGCTCCGACTCGCAGAGCCAGGCGCCGCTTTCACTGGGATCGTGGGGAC` — result for “normalised bound fraction”: -0.0786 ratio.
`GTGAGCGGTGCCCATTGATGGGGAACATCTTCCCCCTCTTCCTTGCCCCACCAGCTCACCTTCCCGGGTTATTTGCAGATAGGAAAATAAATAAAGCCGGCATTCGTTAACGCAGTTCTGGCGCAAACTGCTGTTTGCTCTGGATGAATCATGGTCCTTTGGCGACGCCAGGCTCCGGGAGAGCAAAGCACCGTGTCAGGGCCATGATCCGGGGTGGCCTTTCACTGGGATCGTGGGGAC`: “normalised bound fraction” 0.351 ratio.
`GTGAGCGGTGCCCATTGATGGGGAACCTCATTCCTTGCTTCCGCCAATAATCTGACTAGTAAAGAAGTCACTGCATGCCACAAATTGTCAGTGCTGACTTCCTCAACAAGGAAGTTATTTATTTACTTATTTAATATATATGCAAATTCCGAGTGACTCAGATCTTGAGAATACCAACTCCTGATGCCAACTGATTGTCAGTCATGGCTACAACAGGAGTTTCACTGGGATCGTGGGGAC`: “normalised bound fraction” 0.457 ratio.
`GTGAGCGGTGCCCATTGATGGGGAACCCCTCATCCTGGGTGTCGGGGTGGGAGGTGTTCTCATCATGAATGGGAGGCGTACCCAGATCCAGCTCTGCCTTTTTTTAACCAAACCACATTTGTTTACACTCGCTGTTAAGTGACTCACCATCGACATAGCAAGATATGATACATGCCAGGAGAGAAAAAGAAAGTGCTGATGGAAAAATAATCTCATTAGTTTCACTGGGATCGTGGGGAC`: “normalised bound fraction” 0.307 ratio.
`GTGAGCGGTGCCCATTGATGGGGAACTTTCAGTGTTCACATTTCCCGTTAAGAAAAAAAAACTAATTTTTTACATGCATCATCATTAATTAGTGTAGTTTAATTAGTGTTTAGCTAAAAAGTAAACAGGGACCTAAATTAAGTTTGTTAGACAGTGCTAGAATTTACTGGGCTCCAGTAAATTTCACCTGGGTTTCAGGCAGGAAGAAAGTAAGGATGTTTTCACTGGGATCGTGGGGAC`: “normalised bound fraction” 0.243 ratio.
For `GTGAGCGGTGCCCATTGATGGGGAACAATAGCGCTCTGGAGAGAAGGTCCGTTCCATGCCCAGGTAGGGAGGAGGGGGAAAAATGATACTGGCGGGCAGGGAGAGGGGAAGGCAAGAAAGCAAACAGGCGTGGAAGAGCTGTGACGTCAAATCTGACTTCTTTTGTCTGTAGACGGGGGAATCCAGGGTGACTGGGTATAATCTGTATTATCTAGGTCCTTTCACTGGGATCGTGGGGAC`, “normalised bound fraction” read 0.0591 ratio.

For quick reference, copied from above (series 3):
`KGVKRKLFADDSS [E10D]` — result for “normalised enrichment score”: 3.24.
For `KGVKRKLFAFDSS [E10F]`, “normalised enrichment score” read 0.681.
`KGNKRKLFAEDSS [V3N]` — result for “normalised enrichment score”: 0.364.
Under “normalised enrichment score”, `KYVKRKLFAEDSS [G2Y]` is recorded as 1.01.
Under “normalised enrichment score”, `KGVKRQLFAEDSS [K6Q]` is recorded as 2.84.
Under “normalised enrichment score”, `KGVKRKLFAGDSS [E10G]` is recorded as 0.823.
Under “normalised enrichment score”, `KGVKRKLFAEWSS [D11W]` is recorded as 0.798.
